Measurements pooled from the literature.
± marks the error that the study gave.
CNR1: Cannabinoid receptor 1 (CNR1, Homo sapiens, UniProt P21554)
HCK Y522F: Tyrosine-protein kinase HCK (HCK, Homo sapiens, UniProt P08631, Y522F)

| SMILES | target or system | assay | test system | setting | how to read | quantity | value |
| --- | --- | --- | --- | --- | --- | --- | --- |
| CCCCCn1cc(C(=O)c2ccc3ccccc3c2)c2ccccc21 | CNR2 (Homo sapiens, UniProt P34972) | cAMP, agonist |  |  |  | EC50 | 11.5 nM |
| CC(=O)N[C@H]1[C@H](O[C@H]2[C@H](O[C@H](C)C(=O)N[C@@H](C)C(=O)N[C@H](CCC(=O)N[C@@H](CCC[C@@H](N)C(=O)O)C(=O)N[C@H](C)C(=O)O)C(N)=O)[C@@H](NC(C)=O)[C@@H]3OC[C@H]2O3)O[C@H](CO)[C@@H](O)[C@@H]1O | Serine/threonine-protein kinase PknB, extracellular domain (pknB, Mycobacterium tuberculosis, UniProt P9WI81) | binding, biolayer interferometry |  | extracellular domain |  | Kd | 12000 nM |
| CCN(CC)C(=O)[C@@H]1C=C2c3cccc4c3c(cn4C(=O)c3ccco3)C[C@H]2N(C)C1 | HRH2 (Homo sapiens, UniProt P25021) | ligand displacement, radioligand |  |  |  | Ki | 1030 nM |
| O=C1NC2(CC2)COc2ncc(F)cc2[C@H]2COCCN2c2ccn3ncc1c3n2 |  |  | Sprague-Dawley rat, female, uterus | oral, 10 mg/kg/day, 4 weeks dosing, end of recovery |  | organ-to-body weight ratio | 0.159 ± 0.023% |
| CC(C)(C)n1nc(-c2ccc(Cl)cc2)c2c(N)ncnc21 | SRC (Gallus gallus, UniProt P00523, G530I/P529E/Q528E) | enzyme activity, inhibitor |  |  |  | Ki | 81 nM |
| CC(=O)NC1C(OC2C(CO)OC(OC3C(CO)OC(O)C(O)C3O)C(O)C2OC2(C(=O)O)CC(O)C(NC(C)=O)C(C(O)C(CO)OC3(C(=O)O)CC(O)C(NC(C)=O)C(C(O)C(CO)OC4(C(=O)O)CC(O)C(NC(C)=O)C(C(O)C(O)CO)O4)O3)O2)OC(CO)C(O)C1O (stereo not shown) | hly, domain 4 (Listeria monocytogenes, UniProt P13128) | binding |  |  |  | Kd | 10.4 nM |
| CC(C)c1cc(N)c2cc(NC(=O)C(=O)Nc3ccc4nc(C(C)C)cc(N)c4c3)ccc2n1 | relA, residues 53-446 (Mycobacterium tuberculosis, UniProt P9WHG9) | enzyme activity, inhibitor, fluorescence polarization |  |  |  | IC50 | 10000 nM |
| Cc1sc2c(c1C)C(c1ccc(Cl)cc1)=N[C@@H](CC(=O)OC(C)(C)C)c1nnc(C)n1-2 | non-BET bromodomains |  |  |  |  | Kd | ≥ 24000 nM |
| O=[N+]([O-])CC(c1ccco1)c1c(-c2ccccc2)[nH]c2ccccc12 (stereo not shown) | Cannabinoid receptor 1, with Gi2 (CNR1, Homo sapiens, UniProt P21554) | Gi2 dissociation, agonist, BRET | HEK293 |  |  | EC50 | 280 ± 50 nM |
| CCCCCn1cc(C(=O)c2ccc3c(c2)CC(C)(C)C3)c2ccccc21 | CNR1 | G protein activation, agonist, BRET |  |  |  | EC50 | 66.1 nM |
| CC(C)CC(C(=O)N1CC2(CC1C#N)C(=O)Nc1ccccc12)N(C)C(=O)c1cc2c(F)cc(F)c(F)c2[nH]1 (stereo not shown) | Furin (FURIN, Homo sapiens, UniProt P09958) | enzyme activity, inhibitor |  |  |  | IC50 | > 100000 nM |
| CSCC[C@H](NC(=O)[C@@H]1CSSC[C@H](NC(=O)[C@H](CCCCN)NC(=O)[C@H](Cc2ccc(O)cc2)NC(=O)CNC(=O)[C@@H](N)CC(C(=O)O)C(=O)O)C(=O)N[C@@H](C(C)C)C(=O)N[C@H](Cc2c[nH]c3ccccc23)C(=O)N[C@@H](CCCCN)C(=O)N[C@@H]([C@@H](C)O)C(=O)N1)C(=O)N1C[C@H](O)C[C@H]1C(=O)N[C@@H](C)C(=O)O | SSTR4 (Homo sapiens, UniProt P31391) | β-arrestin recruitment, agonist |  |  |  | EC50 | 5050 nM |
| COc1ccccc1C(C[N+](=O)[O-])c1c(-c2ccccc2)[nH]c2ccccc12 (stereo not shown) | CNR1 (Homo sapiens, UniProt P21554, L165A) | G protein activation, agonist, BRET |  |  |  | EC50 | 280 nM |
| COc1ccccc1-c1n[nH]c2nc(NC3CCN(C(=O)Cc4ccc(F)cc4F)CC3)ncc12 |  | bead binding, competition bead pull-down, item: LINJ.06.0910 | Leishmania donovani axenic amastigote extract | 10 µM | reference: vehicle | relative abundance | 0.91 |
| Cc1ccc2c(C(C[N+](=O)[O-])c3cccs3)c(-c3ccccc3)[nH]c2c1 (stereo not shown) | CNR1 | Gαi1-γ2 dissociation, agonist, BRET |  |  |  | EC50 | 130 ± 10 nM |
| CC(C)n1nc(-c2ccc3cc(OCc4ccccc4)ccc3c2)c2c(N)ncnc21 | HCK Y522F | enzyme activity, inhibitor |  |  |  | Ki | 1100 nM |
| CCCCCn1cc(C(=O)c2cccc3ccccc23)c2ccccc21 | CNR1 | GαoA activation, agonist, BRET |  |  |  | EC50 | 26.3 nM |
| CC(=O)NCCCC[C@H](NC(=O)[C@H](CCCNC(=N)N)NC(=O)[C@H](C)N)C(=O)N[C@@H](CO)C(=O)N[C@H](C(=O)NCC(=O)NCC(=O)N[C@@H](CCCCN)C(=O)N[C@@H](C)C(=O)N1CCC[C@H]1C(=O)N[C@@H](CCCNC(=N)N)C(=O)N[C@@H](CCCCN)C(=O)N[C@@H](CCC(N)=O)C(=O)O)[C@@H](C)O | YEATS domain-containing protein 4, YEATS domain (Homo sapiens, UniProt O95619) | isothermal titration calorimetry |  | pH 7.6, 25 °C, with: histone peptide |  | Kd | 300000 ± 14000 nM |
| Nc1ncnc2c1c(-c1ccc(Oc3ccccc3)cc1)nn2C1CCCC1 | HCK Y522F | enzyme activity, inhibitor |  |  |  | Ki | 83 nM |
| C[C@]12CC[C@H](O)CC1=CC[C@@H]1[C@@H]2CC[C@]2(C)C(=O)CC[C@@H]12 | HSD3B1 (Homo sapiens, UniProt P14060) | binding, SPR |  |  |  | Kd | 3460 nM |
| CCOC(=O)C=CC(CC1CCNC1=O)NC(=O)C(CC(C)C)NC(=O)C(NC(=O)OCc1ccccc1)C(C)OC(C)(C)C (stereo not shown) | Replicase polyprotein 1ab, main protease (rep, Human coronavirus NL63, UniProt P0C6X5) | viral replication |  |  |  | EC50 | 4920 nM |
| CC(C)n1nc(-c2ccc3cc(OCc4cccc(Cl)c4)ccc3c2)c2c(N)ncnc21 | HCK Y522F | enzyme activity, inhibitor |  |  |  | Ki | 83 nM |
| CCN(CC)C(=O)c1ccc(C(c2cccc(O)c2)N2CC(C)N(Cc3ccccc3)CC2C)cc1 (stereo not shown) | OPRD1 (Homo sapiens, UniProt P41143, Y308F) |  |  |  |  | Ki | 0.98 ± 0.12 nM |
| C=CC(=O)N1CCC[C@@H](n2nc(-c3ccc(Cl)cc3)c3c(N)ncnc32)C1 | HCK Y522F |  |  |  |  | Ki | 648 nM |
| CCC[C@@H](C(=O)c1ccccc1)N1CCCC1 | SLC6A3 (Homo sapiens, UniProt Q01959, V152I) | transporter uptake, inhibitor, radiometric |  |  |  | Ki | 16 nM |

A few entries again:
| SMILES | target or system | assay | test system | setting | how to read | quantity | value |
| --- | --- | --- | --- | --- | --- | --- | --- |
| CC(C)c1cc(N)c2cc(NC(=O)C(=O)Nc3ccc4nc(C(C)C)cc(N)c4c3)ccc2n1 | relA, residues 53-446 (Mycobacterium tuberculosis, UniProt P9WHG9) | enzyme activity, inhibitor, fluorescence polarization |  |  |  | IC50 | 10000 nM |
| CCC[C@@H](C(=O)c1ccccc1)N1CCCC1 | SLC6A3 (Homo sapiens, UniProt Q01959, V152I) | transporter uptake, inhibitor, radiometric |  |  |  | Ki | 16 nM |
